Experimental data from different studies.
Each numbered part is a random draw from the data of one study; scales do not carry over between parts.

Block 1 — technique: universal PBM; molecule type: double-stranded DNA, one strand shown; medium: in vitro; tested at: 600 nM; reading: higher = stronger binding; measurement: E-score
Target: Sal-like protein 4, full length isoform A (SALL4, Homo sapiens, UniProt Q9UJQ4, residues 1-1053)
Chain of UniProt Q9UJQ4 (whole entry, looked up): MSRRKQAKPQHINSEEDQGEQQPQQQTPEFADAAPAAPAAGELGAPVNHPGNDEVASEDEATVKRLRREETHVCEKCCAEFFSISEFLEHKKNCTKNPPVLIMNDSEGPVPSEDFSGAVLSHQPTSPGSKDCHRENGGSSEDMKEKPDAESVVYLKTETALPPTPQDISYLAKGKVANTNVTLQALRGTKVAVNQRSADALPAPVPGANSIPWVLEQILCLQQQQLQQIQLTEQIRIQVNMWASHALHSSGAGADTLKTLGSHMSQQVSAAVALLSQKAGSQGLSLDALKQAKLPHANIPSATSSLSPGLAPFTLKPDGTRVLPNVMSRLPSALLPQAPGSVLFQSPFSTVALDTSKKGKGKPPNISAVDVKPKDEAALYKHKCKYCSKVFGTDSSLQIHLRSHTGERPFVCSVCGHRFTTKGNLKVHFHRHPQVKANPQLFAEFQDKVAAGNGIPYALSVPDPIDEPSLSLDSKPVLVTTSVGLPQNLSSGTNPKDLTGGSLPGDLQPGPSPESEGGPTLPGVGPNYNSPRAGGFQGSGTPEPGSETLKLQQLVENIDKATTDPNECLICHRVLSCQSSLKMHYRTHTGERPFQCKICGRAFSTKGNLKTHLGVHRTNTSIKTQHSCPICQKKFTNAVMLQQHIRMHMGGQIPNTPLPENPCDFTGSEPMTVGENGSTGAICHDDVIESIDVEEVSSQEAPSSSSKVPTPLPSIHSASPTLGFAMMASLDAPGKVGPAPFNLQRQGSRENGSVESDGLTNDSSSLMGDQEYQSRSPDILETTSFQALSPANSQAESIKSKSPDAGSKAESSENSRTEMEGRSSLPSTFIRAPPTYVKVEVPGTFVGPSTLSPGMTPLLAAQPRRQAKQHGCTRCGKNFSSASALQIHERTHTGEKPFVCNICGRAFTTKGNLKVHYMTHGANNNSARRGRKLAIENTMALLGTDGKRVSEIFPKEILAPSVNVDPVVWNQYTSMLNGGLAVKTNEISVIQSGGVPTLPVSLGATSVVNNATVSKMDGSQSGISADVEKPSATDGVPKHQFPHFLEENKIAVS
Notes: 8-mer, flanks averaged, mean of replicates
CAATTCCA: 0.0619
GCATTGGC: -0.143
CTCTAGGC: -0.188
CACCGGGC: -0.354
CGTCTGTA: -0.0239
AGCGGATC: -0.219
CACGGCTG: -0.281
CCCAGTTC: -0.161
CTATCCAC: -0.0011
GCACACAA: -0.0432
AGACAGTA: 0.164
AAAGGCGA: -0.0294
AAAGTTTA: 0.282

Block 2 — technique: RNA Bind-n-Seq; molecule type: RNA; medium: in vitro; tested at: 365 nM; reference: no-protein control; reading: higher = stronger binding; measurement: RBNS enrichment (R)
Target: RNA binding protein fox-1 homolog 2, RRM domain, GST-SBP tag (RBFOX2, Homo sapiens, UniProt O43251-10, residues 100-194)
Notes: natural RNA segment, single round, ends assumed
All sequences stand within: GGGAGUUCUACAGUCCGACGAUC … UGGAAUUCUCGGGUGCCAA
AUGCAAUUCUGUUAAAAAAUGUAUUCUUCUGAAUAAAGAGAAUAUUCACUAUUUAACUGCAAACCAACCAUGGUAGUGGUCUUUUUUUGGUUGUUUGUUCUGUUUUGCAC: 0.701
CCUUAUUGUGGGUGAUGAGGCGGUGCCUAAAAACCACAUAUAUAUAAUCCCCUGGGUAUUACAUAUUCUGCAAGCCCUGUUAGUGGGGAGAUGGUAGUGGCAAUAGCAGC: 0.463
UCCAUUCCACCUGACCCUGUGUGUACAAUCCAGGAAAAAAACAAACCCCACUCAGAAACAGAGAAAACUGGGGUCGCGAAGAAAUCACAGCCAAGGAAGAUUUGAUGCAU: 0.419
CCAGUACUGGGAAACAUGGAAUGUGGCAAACUGUCCCACACUCCAAGCCAUUCUCCAAGGGGGCCUGGCACAGUAAGCACUUCAAGCAUGAAUUGGGUAAGCUGGUUUGU: 3.02
GGUUUCAGGUGUUAAUAUGUAAACAAGCAUCUCAUUUAACUUCACUGUGCUCAGCUUUGAAAAGAACAAAGAUUUAUACCUCUGUACAUGUGGAUAGAUAGAAGUGUCCU: 0.365

Block 3 — technique: RNA Bind-n-Seq; molecule type: RNA; medium: in vitro; tested at: not given; reference: input RNA pool; reading: higher = stronger binding; measurement: bound/input enrichment
Target: RING finger protein unkempt homolog, zinc fingers 1-6, GST-SBP tag (UNK, Homo sapiens, UniProt Q9C0B0, residues 30-357)
Notes: RNA with constant flanks, human and mouse sites, ends assumed
All sequences stand within: GGGAGUUCUACAGUCCGACGAUC … CAACAGAGGAUUGAGCAUCA
Target sequence (chain): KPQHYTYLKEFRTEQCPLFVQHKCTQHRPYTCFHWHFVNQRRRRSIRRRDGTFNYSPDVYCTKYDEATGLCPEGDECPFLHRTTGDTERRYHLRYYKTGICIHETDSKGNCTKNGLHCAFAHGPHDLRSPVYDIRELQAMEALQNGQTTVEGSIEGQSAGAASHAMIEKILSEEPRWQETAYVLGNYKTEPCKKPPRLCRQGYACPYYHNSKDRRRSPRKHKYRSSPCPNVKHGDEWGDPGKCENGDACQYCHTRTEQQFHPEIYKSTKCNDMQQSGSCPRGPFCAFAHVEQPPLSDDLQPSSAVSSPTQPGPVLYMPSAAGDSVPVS
GCUGGUCUUUUGGAAAAAAAAUGGACAUCUGUUAUUAGAUUACAAAAGAAGGUUAUGGAAUUAGAAUCAAAGCUAAAUGAAGCAAAAGAAGAAUUUACGUCAGGUGGACCUCUUGGUCAG: 1.45 ratio
UCAUUGGGUUACUCCUAUUAUCAAGUAGCUGGAAUUGUGAAGGUUGAGUAGUUAGAUCUUUAGCUUUUAUUCAUUAUUUUUUGUAUUACUCUCCAUGUGUAUAAAUUAUUGAUCAUGUUG: 24.7 ratio
GAAGCCAUGAGUUAUGCUGAGGUCAUGAGGCUGGUGAAAGGCAUGAACUUCUCAGUGGUAGUGUUCGACACAGCACCCACCGGCCAUACACUCAGGCUCCUGAACUUCCCGACCAUCGUG: 0.0946 ratio
CGAAUCCACUGCAGUAAAUCUUCAGUCCGCAGCAGGAGAAGCAGUCCUAAAAGGAAGCGCAAUAGACACUGUUCAAGUCAUCAGUCACGUUCGAAGAGCCACCGAAGGAAAAGAUCCAGG: 0.177 ratio
UUCCAUGUAGACUUACCUUUCCUCAUAGAGCUAUCCUGGUUAAUAACAGGCCAAGAUUCUCCCAUUAUCCCCUGUUGUCUCCUGUAGCUUUGAUAAUGCCUGGGAGAUUCCUUGGUGUAA: 0.789 ratio
CUGAAUGAUUUUGGCUUCAUGAUCUUUCACUCACCAUAUUGUAAACUGGUGCAGAAAUCUCUAGCUCGGAUGUUCCUGAAUGACUUUCUUAAUGAUCAAAACAGAGAUAAAAACAGUAUU: 0.205 ratio

Block 4 — technique: protein binding microarray; molecule type: double-stranded DNA, one strand shown; medium: in vitro; tested at: not given; reference: not given; reading: higher = stronger binding; measurement: E-score
Target: Histone acetyltransferase KAT6A, both winged helices, GST fusion (KAT6A, Homo sapiens, UniProt Q92794, residues 1-181)
Notes: 8-mer, flanks averaged, mean of 2 arrays, mostly near background
Residues (chain): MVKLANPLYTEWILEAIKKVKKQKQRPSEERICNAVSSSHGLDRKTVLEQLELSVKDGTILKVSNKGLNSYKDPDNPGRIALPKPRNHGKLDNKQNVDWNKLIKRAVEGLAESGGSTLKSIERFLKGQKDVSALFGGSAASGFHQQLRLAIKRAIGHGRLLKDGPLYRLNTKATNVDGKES
ACAACTAC: -0.147
CCCTGTCC: -0.0806
CATTATTC: -0.0901
AGTGCAAC: -0.0513
CGGTCCTA: 0.0525
GTGCTAGA: -0.229
ATCACGCG: 0.228
CGGATTAC: 0.0832
CTAGAGAG: -0.242
GAAAGCAA: -0.0301
CGTCCCTC: -0.00887
GTAAACGA: 0.0806
GCTTGAGA: -0.156

For quick reference, copied from above (block 4):
ATCACGCG: 0.228
CGGATTAC: 0.0832
CTAGAGAG: -0.242
GAAAGCAA: -0.0301
CGTCCCTC: -0.00887
GTAAACGA: 0.0806
